Experimental data pooled from the literature.
Cell line: 786-0

Structure (SMILES) | test | setting | measurement | value
C#C[C@@]1(O)[C@@H](CO)O[C@@H](n2cc(I)c3c(N)ncnc32)[C@@H]1O | cell growth, SRB |  | TGI | 3.24 µM
CCCN1CCN(c2ccc3nc(-c4ccc5nc(-c6cc(OC)ccc6OC)[nH]c5c4)[nH]c3c2)CC1 | cell growth, NCI-60 SRB | 10 µM, 48 h | growth percent | 101%
Cc1cc(C)n(-c2nc(-c3ccc(Cl)cc3)c3c(NC(=O)c4ccccc4)nnc-3[nH]2)n1 | NCI60 SRB | 10 µM | growth percent | 96.2%
CCN(CC)c1ccc(C=NNC(=O)CSc2nc3ccccc3c(=O)n2Cc2ccc(S(N)(=O)=O)cc2)c(O)c1 | cell growth | NCI five-dose screen | TGI | > 100 µM
CCCCN1CCN(c2ccc3[nH]c(-c4ccc5[nH]c(-c6ccc(OCC)c(OCC)c6)nc5c4)nc3c2)CC1 | cell growth, NCI-60 SRB | 10 µM, 48 h | growth percent | -87.4%
Cn1cncc1C1=CN(c2ncnc3[nH]cnc23)CCS1 |  | renal cancer cell line | TGI | 40.7 µM
O=C(Nc1nnc2n3c(nc(-c4ccc(Cl)cc4)c1-2)SCC3=O)c1ccccc1 | NCI60 SRB | 10 µM | growth percent | 98.4%
COc1ccc(OC)c(-c2nc3ccc(-c4nc5ccc(N6CCN(C)CC6)cc5[nH]4)cc3[nH]2)c1 | cell growth, NCI-60 SRB | 10 µM, 48 h | growth percent | 84.5%
NNc1nc(-c2ccc(Cl)cc2)c2c(NC(=O)c3ccccc3)nnc-2[nH]1 | NCI60 SRB | 10 µM | growth percent | 98.5%
C#C[C@@]1(O)[C@@H](CO)O[C@@H](n2cc(F)c3c(N)ncnc32)[C@@H]1O | cell growth, SRB |  | TGI | 2.84 µM
